{"data": "Published values of several laboratories", "note": "Numbered parts are unrelated; each lists some results of a single study."}
{"data": "Set 1", "target": "Histone acetyltransferase KAT6A, winged helix 2, GST fusion (KAT6A, Homo sapiens, UniProt Q92794, residues 85-181)", "method": "protein binding microarray", "form": "double-stranded DNA, one strand shown", "matrix": "in vitro", "tested at": "not given", "setting": "8-mer, flanks averaged, mean of 2 arrays, mostly near background", "baseline": "not given", "direction": "higher = stronger binding", "Target sequence (chain)": "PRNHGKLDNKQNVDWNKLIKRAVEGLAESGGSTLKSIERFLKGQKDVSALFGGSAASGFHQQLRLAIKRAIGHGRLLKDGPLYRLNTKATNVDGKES"}
{"Sequence": "CAGGAGAA", "E-score": 0.0644}
{"Sequence": "AGAGCGGG", "E-score": 0.12}
{"Sequence": "AGGCCGAA", "E-score": 0.107}
{"Sequence": "GAGTAAAC", "E-score": 0.0194}
{"Sequence": "CCTCTACC", "E-score": -0.122}
{"Sequence": "ATCCTCAG", "E-score": 0.026}
{"Sequence": "CCTCTTAA", "E-score": -0.0256}
{"Sequence": "GCTAGCAA", "E-score": 0.0259}
{"Sequence": "CGATGAAG", "E-score": 0.0517}
{"Sequence": "AGCATCTG", "E-score": 0.0165}
{"Sequence": "AGGTAGCC", "E-score": 0.00126}
{"Sequence": "AAGGGTTC", "E-score": 0.00486}
{"Sequence": "AGGTCAGC", "E-score": 0.0738}
{"Sequence": "CATCCCAA", "E-score": 0.0733}
{"Sequence": "TTACGTAA", "E-score": -0.37}
{"Sequence": "CGCGGTGA", "E-score": 0.0446}
{"Sequence": "AGGGCGCA", "E-score": 0.116}
{"Sequence": "GCTAGATA", "E-score": -0.0308}
{"Sequence": "ATCACGGA", "E-score": 0.137}
{"data": "Set 2", "target": "RING finger protein unkempt homolog, zinc fingers 1-6, GST-SBP tag (UNK, Homo sapiens, UniProt Q9C0B0, residues 30-357)", "method": "RNA Bind-n-Seq", "form": "RNA", "matrix": "in vitro", "tested at": "not given", "setting": "RNA with constant flanks, human and mouse sites, ends assumed", "baseline": "input RNA pool", "direction": "higher = stronger binding", "Construct (chain)": "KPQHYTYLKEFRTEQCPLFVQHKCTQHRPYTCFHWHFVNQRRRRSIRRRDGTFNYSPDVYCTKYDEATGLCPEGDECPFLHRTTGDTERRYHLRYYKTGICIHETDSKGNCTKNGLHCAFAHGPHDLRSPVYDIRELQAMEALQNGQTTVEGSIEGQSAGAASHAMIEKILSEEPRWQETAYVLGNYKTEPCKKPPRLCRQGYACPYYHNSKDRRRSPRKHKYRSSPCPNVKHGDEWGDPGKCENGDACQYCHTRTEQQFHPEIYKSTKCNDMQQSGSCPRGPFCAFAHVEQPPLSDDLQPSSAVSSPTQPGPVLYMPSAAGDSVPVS"}
{"Sequence": "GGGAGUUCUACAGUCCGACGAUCUCUCCAUCUUGUUACAUUCCACUGCGGAGACUACAGGAUUUGGCCUCCAUGAUCAAUGUAGAGUAUUUAAAUGGGUCUGCUGAUGGAUCAGAAUCCUUUCAAGACCCUGAAAAAAGUGAUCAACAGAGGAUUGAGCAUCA", "bound/input enrichment": "0.417 ratio"}
{"Sequence": "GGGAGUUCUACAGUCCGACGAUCCGAGAUGAGUUUCUGAGGAUCAGCACUGCCAGUGGAGAUGGGCGUCACUACUGCUACCCUCAUUUCACCUGCGCUGUGGACACUGAGAACAUCCGCCGUGUGUUCAACGACUGCCGUGACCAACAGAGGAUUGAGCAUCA", "bound/input enrichment": "0.037 ratio"}
{"Sequence": "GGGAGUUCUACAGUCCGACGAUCCAAUUGAAGCGCUGAACGCAGUUCAUGGAUUCAUUGCAGAAAAAAUCCGAGAAAUGCCCCAAAAUGUUGCCAAGACAGAACCAGUCAGUAUCCUACAACCUCAGACCACCGUUAAUCCUGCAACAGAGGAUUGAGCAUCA", "bound/input enrichment": "0.149 ratio"}
{"Sequence": "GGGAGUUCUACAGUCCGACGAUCCAGAGUUUACUUUUCAGAUCAAAUUGUUUAUGGUUUUACAAAUGUGAUUUCUACUUGGCAACCUUUUUUUGGUAACUCGUUCCCUUAUACCUCCUUGAUUGAAUACCUUACAGCCUAGACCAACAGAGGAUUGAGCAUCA", "bound/input enrichment": "0.465 ratio"}
{"Sequence": "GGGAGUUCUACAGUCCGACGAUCCUGUGUAGUCGCAGUGACACUAUCGAUACUGUUUCUGUGCCUUAUGUUUUUCGGUAUUUUGUAGCUGAACUGGCAGCUAUGAACAUCAAAGUGAAACUGGAUGUUGUUUAACUUGAUGUUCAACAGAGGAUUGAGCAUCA", "bound/input enrichment": "0.207 ratio"}
{"Sequence": "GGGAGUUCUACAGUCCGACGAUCUAUCUGAAUGACUUGGACCGUGUAGCCGACCCUUCCUAUCUGCCUACACAACAAGACGUGCUUAGAGUUCGAGUCCCCACUACAGGGAUCAUCGAAUACCCCUUUGACUUACAAAGUGUCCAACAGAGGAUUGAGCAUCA", "bound/input enrichment": "0.133 ratio"}
{"Sequence": "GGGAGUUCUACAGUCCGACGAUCGCAACCCUGUCUGUAGGAGGAAAAACUGUAUCACGUUUUCGUAAAGCUACAUCCAUAUUGGAAUUUUACCGGGAACUUGGAUUGCCGCCGAAACAGACAGUUAAAAUCUUUAAUAUAACACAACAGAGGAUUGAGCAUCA", "bound/input enrichment": "0.372 ratio"}
{"Sequence": "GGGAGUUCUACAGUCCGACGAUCAAUAAAGCUGUUGUGUUGCGGGGCCAUGAAUCUGAAGUUUUUAUCUGUGCCUGGAACCCUGUUAGUGAUCUCCUAGCAUCAGGGUCUGGAGACUCAACAGCAAGAAUAUGGAAUCUUAGUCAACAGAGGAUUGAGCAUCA", "bound/input enrichment": "0.507 ratio"}
{"Sequence": "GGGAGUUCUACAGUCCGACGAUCGUCAACAUAGAGUGCGUGGAGUGCUGCGGCAGGGACCUCUACGUGGGCACCAACGACUGCUUCGUCUACCACUUCCUGUUGGAGGAGAGGCCAGUGCCUGCUGGGCCAGCCACGUUCACUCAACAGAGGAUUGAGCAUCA", "bound/input enrichment": "0.192 ratio"}
{"Sequence": "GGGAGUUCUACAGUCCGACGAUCGAGGGAAGAGAUGAAUCUUCAAGGAUACCUACCUCUGAUACAUCAUCUAGAUCUCAUAUUUUUAGAAGAGAAUCAAAUGAAGUGGUUCACCUUGAAGCACAGAAUGAUCCUCUUGGAGCUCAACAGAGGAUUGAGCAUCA", "bound/input enrichment": "0.562 ratio"}
{"Sequence": "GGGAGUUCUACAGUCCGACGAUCAGAUGAUGAUUGCACGGUUAGACACACAGCUGAAGAAUAAGCUUAUAACACUGAUGGGUCAGAAGACAUCUCUAACCCAAGAAACAGAGCUUUUGGAAUCCUUACUUCAGGAGGUGGAGCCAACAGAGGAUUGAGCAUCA", "bound/input enrichment": "0.258 ratio"}
{"data": "Set 3", "target": "Sal-like protein 4, full length isoform A (SALL4, Homo sapiens, UniProt Q9UJQ4, residues 1-1053)", "method": "universal PBM", "form": "double-stranded DNA, one strand shown", "matrix": "in vitro", "tested at": "600 nM", "setting": "8-mer, flanks averaged, mean of replicates", "direction": "higher = stronger binding", "chain of UniProt Q9UJQ4 (whole entry, looked up)": "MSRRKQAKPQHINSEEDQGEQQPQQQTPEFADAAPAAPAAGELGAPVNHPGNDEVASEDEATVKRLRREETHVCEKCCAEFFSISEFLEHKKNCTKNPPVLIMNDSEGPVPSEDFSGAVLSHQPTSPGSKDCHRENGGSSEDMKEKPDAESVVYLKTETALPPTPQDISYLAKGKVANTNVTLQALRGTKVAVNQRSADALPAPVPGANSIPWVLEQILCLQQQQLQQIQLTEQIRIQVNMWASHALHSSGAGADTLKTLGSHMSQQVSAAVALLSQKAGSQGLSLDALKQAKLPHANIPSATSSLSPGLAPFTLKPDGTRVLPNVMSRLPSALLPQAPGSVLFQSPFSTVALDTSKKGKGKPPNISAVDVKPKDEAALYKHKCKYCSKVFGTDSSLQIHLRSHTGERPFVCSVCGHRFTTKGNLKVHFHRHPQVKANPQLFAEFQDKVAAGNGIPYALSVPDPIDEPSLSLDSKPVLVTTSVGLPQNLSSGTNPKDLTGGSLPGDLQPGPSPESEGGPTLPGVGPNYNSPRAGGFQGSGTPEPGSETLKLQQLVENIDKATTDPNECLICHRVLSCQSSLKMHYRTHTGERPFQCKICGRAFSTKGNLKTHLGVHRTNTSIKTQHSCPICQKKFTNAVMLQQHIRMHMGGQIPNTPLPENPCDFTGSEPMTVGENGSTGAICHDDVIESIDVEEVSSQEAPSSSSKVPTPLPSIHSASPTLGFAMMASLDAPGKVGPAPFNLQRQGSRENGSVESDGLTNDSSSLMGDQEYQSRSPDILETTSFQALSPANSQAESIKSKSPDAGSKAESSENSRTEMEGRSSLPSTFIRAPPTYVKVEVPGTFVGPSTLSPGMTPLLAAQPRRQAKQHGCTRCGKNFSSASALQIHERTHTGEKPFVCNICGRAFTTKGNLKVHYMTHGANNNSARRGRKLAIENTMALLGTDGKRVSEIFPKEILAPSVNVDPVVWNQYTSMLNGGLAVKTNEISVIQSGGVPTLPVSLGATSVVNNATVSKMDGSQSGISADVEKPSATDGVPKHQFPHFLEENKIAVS"}
{"Sequence": "GGTGGAGA", "E-score": -0.303}
{"Sequence": "ACGTCCAC", "E-score": -0.124}
{"Sequence": "AGGCCGAT", "E-score": -0.156}
{"Sequence": "ATTATAAC", "E-score": 0.317}
{"Sequence": "ATGCACGG", "E-score": -0.204}
{"Sequence": "AACCCAAC", "E-score": -0.0552}
{"Sequence": "GATAGTTA", "E-score": 0.195}
{"Sequence": "AAGTCTGC", "E-score": -0.0799}
{"Sequence": "GTCTCTCA", "E-score": -0.136}
{"Sequence": "AGAGCTGC", "E-score": -0.339}
{"Sequence": "CTTGGCGA", "E-score": -0.318}
{"Sequence": "CGATCGGC", "E-score": -0.0677}
{"Sequence": "CATCGAGC", "E-score": -0.129}
{"Sequence": "GTCTACAA", "E-score": 0.121}
{"Sequence": "ACGCTGAC", "E-score": -0.182}
{"Sequence": "ACAGACCC", "E-score": -0.257}
{"data": "Set 4", "target": "Hepatocyte nuclear factor 3-alpha (Foxa1, Mus musculus, UniProt P35582, residues 1-468, full length assumed)", "method": "EMSA with sequencing", "form": "double-stranded DNA, one strand shown", "matrix": "in vitro", "tested at": "10 and 20 nM", "setting": "whole designed probe, mean of two concentrations, ends assumed", "baseline": "negative control set to 0", "direction": "higher = stronger binding", "chain of UniProt P35582 (whole entry, looked up)": "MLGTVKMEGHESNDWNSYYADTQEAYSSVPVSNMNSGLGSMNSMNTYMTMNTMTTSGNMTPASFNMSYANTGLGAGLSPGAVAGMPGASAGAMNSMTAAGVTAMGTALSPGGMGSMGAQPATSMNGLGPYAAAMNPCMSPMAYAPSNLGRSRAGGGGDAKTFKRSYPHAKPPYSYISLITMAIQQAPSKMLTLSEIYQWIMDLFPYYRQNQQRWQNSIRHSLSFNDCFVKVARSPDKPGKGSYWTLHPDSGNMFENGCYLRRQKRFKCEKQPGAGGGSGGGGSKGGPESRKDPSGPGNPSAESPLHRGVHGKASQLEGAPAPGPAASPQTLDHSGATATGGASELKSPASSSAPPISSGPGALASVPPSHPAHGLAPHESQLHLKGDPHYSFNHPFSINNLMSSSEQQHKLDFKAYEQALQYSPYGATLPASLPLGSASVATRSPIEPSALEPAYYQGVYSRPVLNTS"}
{"Sequence": "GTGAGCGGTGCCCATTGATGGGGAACAGACAAAAAATGTAGTTGTTCAACAGCTCAGGGAAGAAAGCCTGAGCTTGCCACAGGAGGAGACAGGGCTAAGGCTGGGGAGTTGGGGGGAGTGTAAATAAAGTAGAGGACTGGGCAGTGCTACAAGAAATATTTAGCATTCCTGGCTTCCCACAAAGGGTAGGTCAAGGAGAGGGAATGAGCAGTTGGGATGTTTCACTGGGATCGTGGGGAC", "normalised bound fraction [ratio]": 0.235}
{"Sequence": "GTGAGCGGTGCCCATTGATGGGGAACGCTCTGGGCAGTCACCCAGGTACCACAAAATCCCTATGGGTGTGCATCTCCTTTGTTACCCATGTGTATACTCCCTCCCTGACGTCAAAGCCAAGATTGCTCAGCTTGATGAAAATGTGTTTCTTGAAAGCCACATTCTTTTCCTTTTCTGAGCCAGTGAGGTTTCTGCAGAGCTCATGGTGCTGATGTTTCCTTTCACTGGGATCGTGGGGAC", "normalised bound fraction [ratio]": -0.0778}
{"Sequence": "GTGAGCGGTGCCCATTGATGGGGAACTCATTCGGTGAATATTGCTAATTACTAGAGCCTTCATGGGCAAAGGACAAGGTGGCTGGGCACTGGCCAACTGCCAGCTGTTTCTGGGCCAAAGCAATCTACTTGTGCCTTAGAATGCACTGGTATGGCTGGTGACAACCCCACCAATCCCTAGAGCTCCACTCCAGCCTCTCAATGGAAAACTTTTCTCCTGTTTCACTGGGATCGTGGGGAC", "normalised bound fraction [ratio]": -0.0554}
{"Sequence": "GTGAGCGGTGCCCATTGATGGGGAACATCTTCCCCCTCTTCCTTGCCCCACCAGCTCACCTTCCCGGGTTATTTGCACAAAGGAAAATAAATAAAGCCGGCATTCGTTAACCCTCTTCTGGCGCAAACTGCTGTTTGCTCTGGATCTAACATGGTCCTTTGGCGACGCCAGGCTCCGGGAGAGCAAAGCACCGTGTCAGGGCCATGATCCGGGGTGGCCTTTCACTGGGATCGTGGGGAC", "normalised bound fraction [ratio]": 0.368}
{"Sequence": "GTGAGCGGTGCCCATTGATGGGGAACGGGTCCCGGGCGGCGGCAGGAATGCAGGAATGCGCACAGGCTGTGGGCGGCCAGGAGGGAGTCCCGGCGCCTGCCCCAGGGCGGAAGTGTCTTTGTGTACCCTGTCCAACACCTCCCCCCGCCAGCGCGGAAGGCCGGGCTACCTGCGCGCCTGGCAGCGCCTGGCAGCCGGCTGGGTGGGGCGCAGGGGAGCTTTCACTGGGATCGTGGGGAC", "normalised bound fraction [ratio]": -0.00844}
{"Sequence": "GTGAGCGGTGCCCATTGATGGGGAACATCTTCCCCCTCTTCCTTGCCCCACCAGCTCACCGGTCTGTCCTATTTGCAGATAGGAAAATAAATAAAGCCGGCATTCGTTAACCCTCTTCTGGCGCAAACTGCTGTTTGCTCTGGATGAATCATGGTCCTTTGGCGACGCCAGGCTCCGGGAGAGCAAAGCACCGTGTCAGGGCCATGATCCGGGGTGGCCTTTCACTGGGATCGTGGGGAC", "normalised bound fraction [ratio]": 0.329}
{"note": "Some of these lines once more (set 3):"}
{"Sequence": "ATGCACGG", "E-score": -0.204}
{"Sequence": "AACCCAAC", "E-score": -0.0552}
{"Sequence": "GATAGTTA", "E-score": 0.195}
{"Sequence": "AAGTCTGC", "E-score": -0.0799}
{"Sequence": "GTCTCTCA", "E-score": -0.136}
{"Sequence": "AGAGCTGC", "E-score": -0.339}
{"Sequence": "CTTGGCGA", "E-score": -0.318}
